Experimental data pooled from the literature.
Lines come from different studies, so protocols differ.
T1: itself; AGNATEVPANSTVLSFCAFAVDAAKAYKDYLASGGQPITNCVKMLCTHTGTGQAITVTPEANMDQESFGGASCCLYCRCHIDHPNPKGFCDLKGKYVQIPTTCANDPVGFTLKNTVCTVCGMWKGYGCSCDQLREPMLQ
B1: cyanovirin-N (UniProt P81180); chain LGKFSQTCYNSAIQGSVLTSTCERTNGGYNTSSIDLNSVIENVDGSLKWQPSNFIETCRNTQLAGSSELAAECKTRAQQFVSTKINLDDHIANIDGTLKYE
B2: cyanovirin-N homolog 1-102 (UniProt C0HMD8); chain TGDFSKSCYGSSVSGSTLSSTCYKADGYTPNPTSINLNPYIENVDGVLKWQPGNFIETCRNTELAGPSLMAAQCLTRDQRLVPAEINLDDHIANINGVLKFE
B3: nsp16 (SARS-CoV-2, UniProt P0DTD1); chain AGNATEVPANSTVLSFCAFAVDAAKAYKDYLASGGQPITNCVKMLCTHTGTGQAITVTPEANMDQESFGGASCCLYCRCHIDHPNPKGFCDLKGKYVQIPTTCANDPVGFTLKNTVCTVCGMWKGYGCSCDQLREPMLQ
B4: nusG (Mycobacterium tuberculosis, UniProt P9WIU9); chain TTFDGDTSAGEAVDLTEANAFQDAAAPAEEVDPAAALKAELRSKPGDWYVVHSYAGYENKVKANLETRVQNLDVGDYIFQVEVPTEEVTEIKNGQRKQVNRKVLPGYILVRMDLTDDSWAAVRNTPGVTGFVGATSRPSALALDDVVKFLLPRGSTRKAAKGAASTAAAAEAGGLERPVVEVDYEVGESVTVMDGPFATLPATISEVNAEQQKLKVLVSIFGRETPVELTFGQVSKI
B5: xthA (Mycobacterium tuberculosis, UniProt P96273); chain MPDGTIDGGHPQRPASPRLRSPLLRLATWNVNSIRTRLDRVLDWLGRADVDVLAMQETKCPDGQFPALPLFELGYDVAHVGFDQWNGVAIASRVGLDDVRVGFDGQPSWSGKPEVAATTEARALGATCGGIRVWSLYVPNGRALDDPHYTYKLDWLAALRDTAEGWLRDDPAAPIALMGDWNIAPTDDDVWSTEFFAGCTHVSEPERKAFNAIVDAQFTDVVRPFTPGPGVYTYWDYTQLRFPKKQGMRIDFILGSPALAARVMDAQIVREERKGKAPSDHAPVLVDLHAG

With `EVSIETDIIDEVN (N 377-389 (human coronavirus 229E, UniProt P15130))` the Kd was 7.43 µM (N protein C-terminal domain 245-389 (human coronavirus 229E, UniProt P15130); fluorescence titration; peptide; 1 h, 25 °C).
`nsp16/nsp10 heterodimer (SARS-CoV-2) (sequence not shown)` — result for binding: “binds” (itself; crystal structure).
`B1 (cyanovirin-N)` — result for binding: “binds” (S S1 (SARS-CoV-2); SPR).
`B2 (cyanovirin-N homolog 1-102)` has a ΔH of -14.6 kcal/mol (Spike fragment (SARS-CoV-2); ITC; pH 7.4, 30 °C, one set of sites fit).
Under “subunits per oligomer”, `B3 (nsp16)` is recorded as 3 (T1, itself; cross-linking).
Under binding, `B4 (nusG)` is recorded as “binds” (rpoC clamp helices (Mycobacterium tuberculosis, UniProt P9WGY7); cryo-EM).
`B5 (xthA)` gave a Kd of 0.277 µM (ligA G639V (Mycobacterium tuberculosis, UniProt P9WNV1); SPR).
